Experimental data from different studies.
Lines come from different studies, so protocols differ. ± gives the spread as reported.

CCOC(=O)C1=C(C)NC2=C(C(=O)CC(C)(C)C2)C1c1ccc(OCC(=O)NN=Cc2cccc(C=O)c2)cc1OCC(=O)NN=Cc1cccc(C=O)c1 (stereo not shown)
inhibition zone diameter (Staphylococcus aureus; 6538 P; concentration not given, 24 h): 7.3 ± 0.1 mm

CCC1NC(=O)C(CCCNC(=N)N)NC(=O)C(C)(NC(=O)C(C)C)CCCCNC(=O)C(c2ccccc2)NC1=O (stereo not shown)
mRNA level (RT-qPCR, item: HoxA genes; MLL-AF9 leukaemia cells, mouse; 20 µM): decreased

CCCCNCC1=Cc2cc3c(cc2[C@@H](c2cc(OC)c(OC)c(OC)c2)[C@@H]1C(=O)OC)OCO3
EC50 (Leishmania infantum; iRFP fluorescence; mouse splenocytes infected, amastigote, iRFP, ex vivo splenic explant; 48 h): 31.7 ± 2.1 µM

C[C@@H]1CN(C2CCC2)CC[C@H](O[C@H]2[C@@H](O)C[C@H](O[C@H]3[C@@H](O)C[C@H](O[C@H]4CC[C@@]5(C)[C@H](CC[C@@H]6[C@@H]5C[C@@H](O)[C@]5(C)[C@@H](C7=CC(=O)OC7)CC[C@]65O)C4)O[C@@H]3C)O[C@@H]2C)O1
K+ decay time constant (rat hippocampal slices; 1 µM, ~14 min, trace 2, together with: electrical stimulation; relative to: pre-drug control): 96 ± 6%

C=CC(=O)N1CCC(c2cc(Nc3cc4n(n3)CCOC4)c3ncnn3c2)C1 (single isomer, unassigned)
IC50 (TMD8; calcium flux, FLIPR; 1 h preincubation, together with: anti-IgM): > 1 µM

CCOc1ccccc1Nc1nnc(SCC(=O)Nc2cc(F)ccc2F)s1
TNF-α secretion (PBMC-airway epithelium co-culture; 10 µM, 48 h, together with: anti-CD3/CD28): 211 ± 9 pg/mL

COc1cc([C@@H]2c3cc4c(cc3C=C(C=O)[C@H]2C(=O)OCCCCCCBr)OCO4)cc(OC)c1OC
selectivity index (Leishmania infantum; Alamar Blue; HepG2; relative to: CC50 HepG2 over EC50 amastigotes): 3.8

CC(=NN=c1[nH]c2cc(F)c(F)cc2n1C)c1ccc(F)cn1
IC50 (MDA-MB-231; viability, MTT; 72 h): 0.075 µM

Cc1ncsc1-c1ccc([C@H](C)NC(=O)[C@@H]2C[C@@H](O)CN2C(=O)[C@@H](NC(=O)CCCCCCC(=O)N2CCN(C[C@]3(C)CCC(c4ccc(Cl)cc4)=C(CN4CCN(c5ccc(C(=O)NS(=O)(=O)c6ccc(N[C@H](CCN7CCOCC7)CSc7ccccc7)c(S(=O)(=O)C(F)(F)F)c6)cc5)CC4)C3)CC2)C(C)(C)C)cc1
SA-β-gal staining (naturally aged mice, liver; intraperitoneal, 5 mg/kg every 3 days): decreased

CCn1nccc1N=CC1=Cc2cc3c(cc2[C@@H](c2cc(OC)c(OC)c(OC)c2)[C@@H]1C(=O)OC)OCO3
EC50 (Leishmania infantum; iRFP fluorescence; mouse splenocytes infected, amastigote, iRFP, ex vivo splenic explant; 48 h): 25.3 ± 1 µM
